Measured values gathered from unrelated publications.
Every numbered part comes from another study and shows a few of its results, in no order.

Series 1
Target: Fragile X messenger ribonucleoprotein 1, C-terminal low-complexity region (Fmr1, Mus musculus, UniProt P35922)
Technique: RNA Bind-n-Seq
Molecule type: RNA
Sample: in vitro
Concentration: 200 nM
Notes: whole 134-nt RNA, ends assumed
With: 150 mM LiCl
Baseline: input library
Direction: higher = stronger binding
Library: 7-deaza-guanosine replaces G
| Oligonucleotide | log2 enrichment |
| --- | --- |
| GGGAGUUCUACAGUCCGACGAUCUGUUGGAGGGACGAUGGUCCGCUCCGGGCAGGACCCUUACGCCCGCAACAAGUUCAACCAGGUGGAGAGUGAUAAGCUUCGAAUGGACAGUGGAAUUCUCGGGUGUCAAGG | -3.63 |
| GGGAGUUCUACAGUCCGACGAUCGUCCUGUGCUACACAUCGUAUGUACCGAAUCGGGCCCCGGGGCCCCGGGGCCCCGGGGAAAGUAUUAUGUUACGCCGUUCGGAUCUGCACUGGAAUUCUCGGGUGUCAAGG | 0.455 |
| GGGAGUUCUACAGUCCGACGAUCUCCUGUGCUACACAUCGUAUGUACCGAAUCGGGGUUUUUUUGGGGUUUGGGGUUUGGGGAAAGUAUUAUGUUACGCCGUUCGGAUCUGCAUGGAAUUCUCGGGUGUCAAGG | -0.8 |

Series 2
Target: RNA binding protein fox-1 homolog 2, RRM domain, GST-SBP tag (RBFOX2, Homo sapiens, UniProt O43251-10, residues 100-194)
Technique: RNA Bind-n-Seq
Molecule type: RNA
Sample: in vitro
Concentration: 365 nM
Notes: natural RNA segment, single round, ends assumed
Baseline: no-protein control
Direction: higher = stronger binding
Constant ends, left off below: GGGAGUUCUACAGUCCGACGAUC … UGGAAUUCUCGGGUGCCAA
Target sequence (chain): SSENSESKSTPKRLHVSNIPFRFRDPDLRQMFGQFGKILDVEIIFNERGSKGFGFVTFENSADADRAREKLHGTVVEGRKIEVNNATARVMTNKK
| Oligonucleotide | RBNS enrichment (R) |
| --- | --- |
| AGAGGUGCAAACAGCGAGCGAUUAAGAACUGUUGGUCAACUGUUACGAGACUAUAAAAGGCUUAGCCACACUACGGGACAAAUUGUGUUGUGAAUUCGCAUUGCUGUUUU | 0.498 |
| GAUUACCUGAUAUCUAGAUAUAUAAUUAUAUGUGUGAAUAAAUGUGACAGAACUUGAUUAUUUCAUCUUUUCCCACAAUUGUGCUUUAUUGGAUGUGAUGUUUCUUGCAU | 0.632 |
| AGGUGGGGAACAAUCCUUGCCAGAGUGGGCUGGGACCAGACUUUGUUCUCUUCCUCACCUGAAAUUAUGCUUCCUAAAAUCUCAAGCCAAACUCAAAGAAUGGGGUGGUG | 0.218 |
| CAUGGCAUGUGCAAGUAGGUCUGCGUGACCCCACUUCUGUGGUGCCGGCCUUACCUCGUCUUCAUCCGUGGUGAGCAGCCUUCGUCAGUCUAGUUGUGUUGAAGCCAAGU | 1.22 |
| UUUUUUUGAGAUGGGGUUUCACUCUCUCACCCAGACUGGAGUACAGUGGGGAGAUCUCAGCUCACUGCAGCCUCUGCCUCCCAAGUUCAAGCGAUUCUCCUGUCUCAGCC | 0.286 |

Series 3
Target: RING finger protein unkempt homolog, zinc fingers 1-6, SBP tag (UNK, Homo sapiens, UniProt Q9C0B0, residues 30-357)
UniProt Q9C0B0, sequence (30-357, looked up): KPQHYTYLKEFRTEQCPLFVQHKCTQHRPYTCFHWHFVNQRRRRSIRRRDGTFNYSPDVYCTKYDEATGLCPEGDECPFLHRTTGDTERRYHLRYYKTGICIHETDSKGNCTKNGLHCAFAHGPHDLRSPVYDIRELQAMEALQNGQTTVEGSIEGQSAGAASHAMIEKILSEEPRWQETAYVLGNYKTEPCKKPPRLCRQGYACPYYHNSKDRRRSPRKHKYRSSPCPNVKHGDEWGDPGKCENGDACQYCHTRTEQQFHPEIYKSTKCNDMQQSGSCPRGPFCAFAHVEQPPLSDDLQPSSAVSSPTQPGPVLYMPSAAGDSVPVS
Technique: RNA Bind-n-Seq
Molecule type: RNA
Sample: in vitro
Concentration: 100 nM
Notes: RNA with constant flanks, vertebrate orthologous sites, ends assumed
Baseline: input RNA pool
Direction: higher = stronger binding
| Oligonucleotide | bound/input enrichment [ratio] |
| --- | --- |
| GGGAGUUCUACAGUCCGACGAUCAUUCAAACCUGUGGUACCAUGGCCUCAUGUUGAAGGAGUAGAAGUGGACUUAGAGUCUAUUAGAAGAAAAAACAAGGCCAAAAAUGAACAGGAGCGUCAUGCUGGAGGAGAUUCCCAAAACAACAGAGGAUUGAGCAUCA | 0.398 |
| GGGAGUUCUACAGUCCGACGAUCAUGCACAUGCCACCAUCACCGAAAACAAACUCACUUCUCCAACUCCAUCCAGAGCUGAUUUAGUGUUUCCCAUUCCCCACCUUUCCUACUACUUUCAGUGAUCAAAUAUCCUAAGUUCUCCAACAGAGGAUUGAGCAUCA | 1.89 |
| GGGAGUUCUACAGUCCGACGAUCCAUUUCGUUGCACAUGAUGGUGUCUAUUGAGGAGCCUUGAAGGAAGGAAGAGGGGUGCUGUAGCAGUGGUCCCUGGGUACCUGGCCUCCCGUGUCCCACACCCCUCCCCGUCCCUCUCUGCAACAGAGGAUUGAGCAUCA | 0.424 |

Further values, each from its own experiment
| Substance | target | test | system | conditions | how to read | measurement | value |
| --- | --- | --- | --- | --- | --- | --- | --- |
| PhoQ, residues 284 288 289 292 302 303 SIHLQL | PhoP, residues 12 14 15 18 19 FWNTL (Escherichia coli, UniProt P23836) | Sort-seq, item: YFP reporter | E. coli | PhoQ-PhoP variant library, with: 10 µM Mg2+ | baseline: high Mg2+ state, higher = stronger signaling | fold induction | 14.3 |

Some of these lines once more (series 1):
| Oligonucleotide | log2 enrichment |
| --- | --- |
| GGGAGUUCUACAGUCCGACGAUCUGUUGGAGGGACGAUGGUCCGCUCCGGGCAGGACCCUUACGCCCGCAACAAGUUCAACCAGGUGGAGAGUGAUAAGCUUCGAAUGGACAGUGGAAUUCUCGGGUGUCAAGG | -3.63 |
